# Measured values gathered from unrelated publications.
# Parts stem from different laboratories: compare values within a part only. Positions count from the first letter of the parent shown.

# Sample 1 — technique: RNA Bind-n-Seq; form: RNA; sample: in vitro; tested at: 1 µM; notes: whole 134-nt RNA, ends assumed; with: 150 mM KCl; reference: input library; direction: higher = stronger binding
# Target: Ras GTPase-activating protein-binding protein 1, RRM domain (G3BP1, Homo sapiens, UniProt Q13283)
# Chain of UniProt Q13283 (whole entry, looked up): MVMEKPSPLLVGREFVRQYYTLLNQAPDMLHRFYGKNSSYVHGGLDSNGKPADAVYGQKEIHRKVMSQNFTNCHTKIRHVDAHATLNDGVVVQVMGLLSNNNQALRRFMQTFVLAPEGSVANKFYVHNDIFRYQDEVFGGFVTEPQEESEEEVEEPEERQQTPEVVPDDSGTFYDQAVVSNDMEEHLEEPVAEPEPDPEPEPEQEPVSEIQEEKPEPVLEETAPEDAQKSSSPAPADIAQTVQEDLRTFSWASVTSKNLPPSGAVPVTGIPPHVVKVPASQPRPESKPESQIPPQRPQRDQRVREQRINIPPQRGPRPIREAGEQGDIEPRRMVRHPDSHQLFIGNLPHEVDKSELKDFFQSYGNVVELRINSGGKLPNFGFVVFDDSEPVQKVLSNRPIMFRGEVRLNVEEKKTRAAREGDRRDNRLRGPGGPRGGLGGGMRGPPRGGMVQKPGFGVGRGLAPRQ
# All sequences stand within: GGGAGUUCUACAGUCCGACGAUC … UGGAAUUCUCGGGUGUCAAGG
Sequence,log2 enrichment
UCCUGUGCUACACAUCGUAUGUACCGAAUCGGGAAAAAGGGAAAAAAAGGGAAAAAGGGAAAGUAUUAUGUUACGCCGUUCGGAUCUGCA,0.194
AGUCCUGUGCUACACAUCGUAUGUACCGAAUCGGGAAAAAGGGUUUUUUUGGGUGGGAAAGUAUUAUGUUACGCCGUUCGGAUCUGCACU,0.603
UCCUGUGCUACACAUCGUAUGUACCGAAUCGGGGUUUUUUUGGGGAAAGGGGUUUGGGGAAAGUAUUAUGUUACGCCGUUCGGAUCUGCA,0.663
GUCCUGUGCUACACAUCGUAUGUACCGAAUCGGCCCCCGGGGCCCCCGGCCCCCGGGGAAAGUAUUAUGUUACGCCGUUCGGAUCUGCAC,-0.545
AGUCCUGUGCUACACAUCGUAUGUACCGAAUCGGAAAAAGGGAAAAAGGAAAAAGGGAAAGUAUUAUGUUACGCCGUUCGGAUCUGCACU,0.0469
UGGGAGGUGGAUUUUGUUUAUUUUUUUAGCUCAUUUGCAGGGGUGGGAAUUUUUUUUUAAUAUGUGUCAUGAAUAAAGUUGUUUUUGAAA,1.69
CCUGUGCUACACAUCGUAUGUACCGAAUCGGGAAAAAAAGGAAAAAAAGGGAAAAAAAGGAAAGUAUUAUGUUACGCCGUUCGGAUCUGC,0.0676
GCAGGAAGUAAAAACAAAUGGAAAUGCUUCGGAUAGUGGCAGGGGUGGGGGUUGCUAAGGAAAGGGUCGGAUGGGAGUGGGUAAAGAGUU,1.08
CAAGUCCUGUGCUACACAUCGUAUGUACCGAAUCGGGAAAAGGGAAAAGGAAAAGGAAAGUAUUAUGUUACGCCGUUCGGAUCUGCACUU,-0.107
UCAAGUCCUGUGCUACACAUCGUAUGUACCGAAUCGGGGUUGGGUUGGGGUUGGGAAAGUAUUAUGUUACGCCGUUCGGAUCUGCACUUC,0.663

# Sample 2 — target: CCND1, cyclin fold, Cln2 fusion (human); technique: yeast growth competition, sequencing; sample: yeast; notes: weak parent motif; reference: not given; direction: higher = stronger binding
# Parent: CDC6 docking peptide (human); TLKGRRLVFDNQL
Variant,normalised enrichment score
TLKGRRLVKDNQL [F9K],0.414
TSKGRRLVFDNQL [L2S],-0.304
TCKGRRLVFDNQL [L2C],0.697
ILKGRRLVFDNQL [T1I],0.0886
TWKGRRLVFDNQL [L2W],0.728
TLKGRRLMFDNQL [V8M],-0.275
LLKGRRLVFDNQL [T1L],-0.123
TLKGRRYVFDNQL [L7Y],0.455
TLKGRRSVFDNQL [L7S],-0.17
TLKGRRLVFDNQW [L13W],0.908
TLKGRRVVFDNQL [L7V],-0.0558
TLIGRRLVFDNQL [K3I],1.33
TLKGRRLEFDNQL [V8E],0.809
TLKGRRLVFENQL [D10E],0.122
TLKGRRQVFDNQL [L7Q],0.198
TLKYRRLVFDNQL [G4Y],-0.121

# Sample 3 — technique: protein binding microarray; form: double-stranded DNA, one strand shown; sample: in vitro; tested at: not given; reference: not given; direction: higher = stronger binding
# Target: Histone acetyltransferase KAT6A, both winged helices, GST fusion (KAT6A, Homo sapiens, UniProt Q92794, residues 1-181)
# Notes: 8-mer, flanks averaged, mean of 2 arrays, mostly near background
# Target sequence (chain): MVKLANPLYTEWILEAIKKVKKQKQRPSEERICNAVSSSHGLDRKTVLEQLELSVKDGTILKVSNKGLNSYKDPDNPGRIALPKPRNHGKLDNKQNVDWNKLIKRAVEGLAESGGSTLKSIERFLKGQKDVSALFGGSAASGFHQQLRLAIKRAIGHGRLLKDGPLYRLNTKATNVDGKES
Sequence,E-score
AACCCGGT,0.222
CTAGCTGA,-0.193
CCTTCTTA,-0.125
ACGGTTCG,0.171
CAGCTGTC,-0.15
ACAGCCCT,-0.152
AAGATGGA,0.0437
AGAGGTCC,-0.0295
TAAAGACA,-0.0753
GGGCCAAC,-0.145
AAACTTAC,-0.101
GAGCGATA,0.0579
CCTTCCGA,0.087
CAGCTGGC,-0.0548
ATAAACGA,0.0747
TGCTTCCA,-0.307
CCCGTGAG,0.198
CGGGAAAC,0.228

# Sample 4 — technique: RNA Bind-n-Seq; form: RNA; sample: in vitro; tested at: 100 nM; reference: input RNA pool; direction: higher = stronger binding
# Target: RING finger protein unkempt homolog, zinc fingers 1-6, SBP tag (UNK, Homo sapiens, UniProt Q9C0B0, residues 30-357)
# Chain of UniProt Q9C0B0 (30-357, looked up): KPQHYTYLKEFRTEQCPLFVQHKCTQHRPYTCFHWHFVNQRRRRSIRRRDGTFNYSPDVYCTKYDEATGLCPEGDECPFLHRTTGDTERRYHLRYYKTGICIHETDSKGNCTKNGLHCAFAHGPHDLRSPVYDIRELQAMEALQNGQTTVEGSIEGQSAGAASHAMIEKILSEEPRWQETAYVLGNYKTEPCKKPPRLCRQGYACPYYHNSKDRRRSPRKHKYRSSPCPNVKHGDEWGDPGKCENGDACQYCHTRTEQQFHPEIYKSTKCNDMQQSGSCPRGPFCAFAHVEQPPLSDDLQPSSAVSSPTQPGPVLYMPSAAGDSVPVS
# Notes: RNA with constant flanks, vertebrate orthologous sites, ends assumed
# All sequences stand within: GGGAGUUCUACAGUCCGACGAUC … CAACAGAGGAUUGAGCAUCA
Sequence,bound/input enrichment
CCAGUUUUCCAUAUAGGGUUGGCCUCAAAUCUAUAGGAUUUUUGACAAAUGUACCAUAUCUAGUUGUGUUGUUUUACUAUUUUUUUAUUAGCCUGUAAAUAAAGAUGGCAUCUCUCCUAU,0.925 ratio
AAGCCCUGUGAAGGUCUACUGACCGCUCACUAUUGUCUGGUAUCUGUAAACACUUCUGUUUAGUCCUUUCAUGGUAUAAUUGAUGUUCUUUAAAACUGUCAGUGUAAAACAGGGCUUAUG,0.585 ratio
GUUAGGUCAUGACCCUUACAGAUUAGGUCAUGAUGCUUAUAGGUUAGGACAGGACCCCUAUAGAUUAGGCCACGAUCCCUACAGACUAACUCCUGAUCCCUAUAGGAUGUCACCUAGACC,0.976 ratio
CAGCUGACUCACUCAUUGGGAGAGCUGCACAUAUAGCUGUUCUUGAUUCAGAAAUAUUUUUAGAGAAAUUCUUUCUGGUUGCUGCCCUCAAAUAUUUCCAGUAGGAUAAAACAUUGUUAA,0.859 ratio
AAAUUUAUUUCAUGCCCUGGACUCCCUACCGCACUGAUACUUUAAUAGAGUAUGCUUCUAUAGAAGAUUUCCAAAACAGUCGCCAAACAACGACAUACAAACUUCCAAACCGAGUAGAUG,0.943 ratio
AAACCCCGAUUUUAGAUGUGAUAUCUAGCUUUCAUUCCAGUUUGUUUUGUCUUUUCUUGUUUAGAUACCAACCUUUUAAAUUCUUGCAUUUUAGUAAGAAAGCUACCUUUUUAUGGAUGU,0.826 ratio
AAACCCCGAUUUUAGAUGUGAUAUCUAGGCUCUCAUUCCAGUUUGUUUUUGUCUUUUGUUUAGAUACCAAUCUUUUAAAUUCUUGCAUUUUAGUAAGAAAGCUACCUUUUUAUGGAUGUU,0.861 ratio
GAUCUGGACCUUGGAGCCGAACCAGAGAGCUAGCAAAAGUAAGGCAGACUUGUAAAAUUAUAGCCAUGUACAGCUGCACAACAACAGUCCUACCACUAGCAGCUGCAUUAAAGUAUUUAU,0.588 ratio
AUUCAAACCUGUGGUACCAUGGCCUCAUGUUGAAGGAGUAGAAGUGGACUUAGAGUCUAUUAGAAGAAUAAACAAGGCCAAAAAUGAACAAGAGCACCAUGCUGGAGGAGAUUCCCAGAA,0.384 ratio
CUUUUGUGUGAAAUAUGUCUCUCCAGAGAAGUAUCACCUUAUAAAUAUUAUCAAAUAAUUUAGCUCAAGUCUUCUUAGGUAUUAAAUUAUGUGUCAAGCAUUUAAGGUGACUUUGAGAUG,0.293 ratio
UGUGUGGGUUGAGGGUAGAAGGGAGGGAAGGACAGGACAGUGCAGAGUCUUUGGAAAGGUAGGGAUAACAGUUCUAAGUGGGCCUUUAGCUUAGAAACUUUUAGAAGUAUCUGCUGUGGG,0.59 ratio

# Sample 5 — technique: universal PBM; form: double-stranded DNA, one strand shown; sample: in vitro; tested at: not given; direction: higher = stronger binding
# Target: Sal-like protein 4, full length isoform B (SALL4, Homo sapiens, UniProt Q9UJQ4-2, residues 1-616)
# Notes: 8-mer, flanks averaged, mean of replicates
# Construct (chain): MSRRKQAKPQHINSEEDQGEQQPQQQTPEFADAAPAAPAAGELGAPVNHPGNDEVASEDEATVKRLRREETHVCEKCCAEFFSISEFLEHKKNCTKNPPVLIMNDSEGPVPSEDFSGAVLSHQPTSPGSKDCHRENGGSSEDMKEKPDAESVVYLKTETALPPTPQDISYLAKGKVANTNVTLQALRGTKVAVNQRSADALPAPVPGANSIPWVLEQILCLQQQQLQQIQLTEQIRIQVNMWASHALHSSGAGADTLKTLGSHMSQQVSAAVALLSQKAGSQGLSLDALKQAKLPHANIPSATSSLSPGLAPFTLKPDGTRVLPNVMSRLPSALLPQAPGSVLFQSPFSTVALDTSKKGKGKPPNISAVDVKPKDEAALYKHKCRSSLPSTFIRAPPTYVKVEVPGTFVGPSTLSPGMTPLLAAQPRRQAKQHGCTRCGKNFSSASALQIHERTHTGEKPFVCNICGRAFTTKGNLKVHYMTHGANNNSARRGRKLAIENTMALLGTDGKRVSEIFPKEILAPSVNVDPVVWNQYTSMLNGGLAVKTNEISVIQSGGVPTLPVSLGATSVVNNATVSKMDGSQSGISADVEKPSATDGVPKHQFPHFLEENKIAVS
Sequence,E-score
AGTGAGCA,-0.0578
CGTCATCA,0.0519
CTCAGACC,-0.213
GCAAGAAA,0.0504
ACCGATCT,-0.183
CTGATGTC,-0.0379
ATATTGAT,0.382
TAGGACGA,-0.0503
AACTCCCA,-0.102
CAGAACGG,-0.135
CGAATGCG,0.0362
AGGTTTGG,-0.166
CCACCTAG,-0.231
TATGGCAA,0.222
CACTTTTC,0.124
GTAGGAAC,0.0981
ATCCGGTA,-0.185

# Excerpt of the above (sample 4):
Sequence,bound/input enrichment
GUUAGGUCAUGACCCUUACAGAUUAGGUCAUGAUGCUUAUAGGUUAGGACAGGACCCCUAUAGAUUAGGCCACGAUCCCUACAGACUAACUCCUGAUCCCUAUAGGAUGUCACCUAGACC,0.976 ratio
CAGCUGACUCACUCAUUGGGAGAGCUGCACAUAUAGCUGUUCUUGAUUCAGAAAUAUUUUUAGAGAAAUUCUUUCUGGUUGCUGCCCUCAAAUAUUUCCAGUAGGAUAAAACAUUGUUAA,0.859 ratio
AAAUUUAUUUCAUGCCCUGGACUCCCUACCGCACUGAUACUUUAAUAGAGUAUGCUUCUAUAGAAGAUUUCCAAAACAGUCGCCAAACAACGACAUACAAACUUCCAAACCGAGUAGAUG,0.943 ratio
AAACCCCGAUUUUAGAUGUGAUAUCUAGCUUUCAUUCCAGUUUGUUUUGUCUUUUCUUGUUUAGAUACCAACCUUUUAAAUUCUUGCAUUUUAGUAAGAAAGCUACCUUUUUAUGGAUGU,0.826 ratio
AAACCCCGAUUUUAGAUGUGAUAUCUAGGCUCUCAUUCCAGUUUGUUUUUGUCUUUUGUUUAGAUACCAAUCUUUUAAAUUCUUGCAUUUUAGUAAGAAAGCUACCUUUUUAUGGAUGUU,0.861 ratio
GAUCUGGACCUUGGAGCCGAACCAGAGAGCUAGCAAAAGUAAGGCAGACUUGUAAAAUUAUAGCCAUGUACAGCUGCACAACAACAGUCCUACCACUAGCAGCUGCAUUAAAGUAUUUAU,0.588 ratio
AUUCAAACCUGUGGUACCAUGGCCUCAUGUUGAAGGAGUAGAAGUGGACUUAGAGUCUAUUAGAAGAAUAAACAAGGCCAAAAAUGAACAAGAGCACCAUGCUGGAGGAGAUUCCCAGAA,0.384 ratio
CUUUUGUGUGAAAUAUGUCUCUCCAGAGAAGUAUCACCUUAUAAAUAUUAUCAAAUAAUUUAGCUCAAGUCUUCUUAGGUAUUAAAUUAUGUGUCAAGCAUUUAAGGUGACUUUGAGAUG,0.293 ratio
